Published values collected from several papers.
Compare with care: the assays were run in different laboratories. “And” joins repeats or separate records; there may be more than shown.
Target: Myosin light chain kinase 2, skeletal/cardiac muscle (MYLK2, Homo sapiens, UniProt Q9H1R3)

SMILES = COCC12C(=O)NC3C4(C(OC)CC1O)C1CC5(O)C(OC)C(O)C(OC(C)=O)(C1C5OC(=O)c1ccccc1)C3(O)C(OC)C24 (stereo not drawn); read-out = kinase activity; action = inhibitor; method = ProQinase kinase profiling; concentration = 25 µM; relative to = control; measurement = remaining activity; value = 86% and 90%
SMILES = Nc1ncc2c(n1)-c1c([nH]c3ccc(C4=CCOCC4)cc13)CCC2; read-out = binding; method = competition with immobilised ligand; concentration = 1 µM; measurement = remaining binding; value = 100%
SMILES = Cc1cnc2nc1Nc1cccc(c1)COC/C=C/COCc1cc(ccc1OCCN1CCOCC1)N2; read-out = binding; concentration = 0.1 µM; measurement = remaining binding; value = 100%
SMILES = CCN1CCN(Cc2ccc(C(=O)Nc3ccc(C)c(NCc4cnc5[nH]ccc5c4OC)c3)cc2C(F)(F)F)CC1; read-out = binding; method = competition with immobilised ligand; concentration = 1 µM; measurement = remaining binding; value = 13%
SMILES = CN1CC[C@@H](COc2cnc(C#N)cc2-c2ccn3nc(NC(=O)C4CC4)cc3c2)C1; read-out = enzyme activity; action = inhibitor; concentration = 1 µM; measurement = inhibition; value = 6%
SMILES = COc1cc(Nc2nc(C)cc(-c3cnn4nc(OC)ccc34)n2)cc(C(F)(F)F)c1; action = inhibitor; concentration = 1 µM; relative to = control; measurement = remaining activity; value = 100%
SMILES = COC(=O)[C@@]1(C)C=C(C(=O)Nc2cccc(C(=O)Nc3ccc(Nc4nccc(-c5cccnc5)n4)c(C)c3)c2)C(=O)CC1; read-out = enzyme activity; action = inhibitor; method = radiometric; concentration = 1 µM; measurement = remaining activity; value = 87%
SMILES = O=C(Cc1ccc(OCc2ccccc2)cc1)NC1(C(=O)O)CCN(C(=O)c2ccc(-c3cccc(Cl)c3)cc2)CC1; read-out = enzyme activity; action = inhibitor; concentration = 10 µM; measurement = activity vs control; value = 103%
SMILES = C=CC(=O)Nc1cccc(-c2cnc3[nH]cc(C(=O)NC(C)(C)C)c3n2)c1; read-out = enzyme activity; action = inhibitor; concentration = 0.1 µM; measurement = inhibition; value = 4%
SMILES = C=CC(=O)N1CCCC(n2c(=O)c3ncccc3n(Cc3ccc(Oc4ccccc4)cc3)c2=O)C1 (stereo not drawn); read-out = cell-free assay; method = competition with immobilised ligand; concentration = 1 µM; measurement = remaining binding; value = 93%
SMILES = NC(=O)[C@@H](O)C[C@H]1CCc2sc3ncnc(O[C@H]4CC[C@H](N5CCOCC5)CC4)c3c21; read-out = enzyme activity; action = inhibitor; concentration = 10 µM; measurement = inhibition; value = -1%
SMILES = COc1c(Cl)cccc1Nc1c(-c2ccncc2C#C[C@@]2(C)CCCN2C(=O)/C=C/CN(C)C)[nH]c2c1C(=O)NCC2; read-out = binding; method = competition with immobilised ligand; concentration = 3 µM; measurement = remaining binding; value = 94%

Repeated from above:
SMILES = C=CC(=O)N1CCCC(n2c(=O)c3ncccc3n(Cc3ccc(Oc4ccccc4)cc3)c2=O)C1 (stereo not drawn); read-out = cell-free assay; method = competition with immobilised ligand; concentration = 1 µM; measurement = remaining binding; value = 93%
SMILES = O=C(Cc1ccc(OCc2ccccc2)cc1)NC1(C(=O)O)CCN(C(=O)c2ccc(-c3cccc(Cl)c3)cc2)CC1; read-out = enzyme activity; action = inhibitor; concentration = 10 µM; measurement = activity vs control; value = 103%
